Experimental data collected from several papers.
Every numbered part comes from another study and shows a few of its results, in no order. Changes are numbered by the printed parent chain.
UniProt P35372, sequence (whole entry, looked up): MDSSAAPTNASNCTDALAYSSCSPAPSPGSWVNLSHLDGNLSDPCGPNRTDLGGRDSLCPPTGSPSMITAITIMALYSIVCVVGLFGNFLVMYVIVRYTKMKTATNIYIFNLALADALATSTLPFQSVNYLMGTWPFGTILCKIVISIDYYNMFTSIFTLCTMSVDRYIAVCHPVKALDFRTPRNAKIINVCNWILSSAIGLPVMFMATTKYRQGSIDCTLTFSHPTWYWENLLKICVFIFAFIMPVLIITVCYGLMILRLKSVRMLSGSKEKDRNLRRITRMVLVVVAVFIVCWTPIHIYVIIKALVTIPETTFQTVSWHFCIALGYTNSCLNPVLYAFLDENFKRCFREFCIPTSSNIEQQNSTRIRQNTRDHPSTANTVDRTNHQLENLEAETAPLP
UniProt P21728, sequence (whole entry, looked up): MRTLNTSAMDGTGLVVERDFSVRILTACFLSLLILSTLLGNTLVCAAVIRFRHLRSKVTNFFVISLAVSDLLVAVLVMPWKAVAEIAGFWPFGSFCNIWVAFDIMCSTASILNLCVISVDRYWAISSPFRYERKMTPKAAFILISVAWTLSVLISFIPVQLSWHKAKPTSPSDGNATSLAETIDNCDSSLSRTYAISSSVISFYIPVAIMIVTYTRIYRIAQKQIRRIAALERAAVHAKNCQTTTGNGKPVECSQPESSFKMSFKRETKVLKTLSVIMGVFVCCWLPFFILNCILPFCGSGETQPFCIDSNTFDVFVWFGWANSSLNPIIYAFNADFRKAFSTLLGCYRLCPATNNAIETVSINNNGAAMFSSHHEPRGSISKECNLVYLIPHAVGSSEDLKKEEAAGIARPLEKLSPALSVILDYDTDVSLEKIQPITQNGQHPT

Block 1
Target: vanadate, free oxyanion
Method: microfluidic competitive inhibition
Medium: in vitro, cell-free expressed
Tested at: not given
Notes: derived from inhibition constants, unchanged parent 676 nM
Reading: lower = stronger binding
Quantity: oxyanion analog dissociation constant
Parent: PafA, mature enzyme, eGFP fusion (Elizabethkingia meningoseptica, UniProt Q9KJX5); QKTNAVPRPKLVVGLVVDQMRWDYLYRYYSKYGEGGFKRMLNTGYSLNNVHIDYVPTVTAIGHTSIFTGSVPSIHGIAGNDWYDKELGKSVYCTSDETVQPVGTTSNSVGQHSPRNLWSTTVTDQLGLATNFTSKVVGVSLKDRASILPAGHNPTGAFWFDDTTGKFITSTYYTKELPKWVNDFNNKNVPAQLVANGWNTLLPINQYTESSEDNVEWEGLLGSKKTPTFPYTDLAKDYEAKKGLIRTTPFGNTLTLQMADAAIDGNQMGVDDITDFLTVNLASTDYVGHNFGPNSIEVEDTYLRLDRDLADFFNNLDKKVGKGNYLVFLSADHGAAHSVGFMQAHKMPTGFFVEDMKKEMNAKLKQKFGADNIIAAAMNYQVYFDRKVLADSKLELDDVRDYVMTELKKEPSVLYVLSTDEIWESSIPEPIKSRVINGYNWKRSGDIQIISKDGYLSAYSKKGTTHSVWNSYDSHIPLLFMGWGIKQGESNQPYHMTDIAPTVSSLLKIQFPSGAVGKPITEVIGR
W22V: 780 nM
H63V: 3.96 µM
R246G: 1.25 µM
M342G: 684 nM
E176V: 656 nM
Y459G: 598 nM
K175V: 856 nM
V298A: 795 nM

Block 2
Target: CCNA1, cyclin fold, Cln2 fusion (human)
Method: yeast growth competition, sequencing
Medium: yeast
Notes: weak parent motif
Baseline: not given
Reading: higher = stronger binding
Quantity: normalised enrichment score
Parent: viral docking peptide; CKVKRKLFGSENI
CKVKRKLFGSENA [I13A]: 0.628
CKVARKLFGSENI [K4A]: 0.555
CKVKRALFGSENI [K6A]: 0.43
CKVKRKLFASENI [G9A]: 0.29
CKVKKKLLGSENI [R5K F8L]: -0.0199
CKAKRKLFGSENI [V3A]: 0.325
CAVKRKLFGSENI [K2A]: 0.496
CKVKRKLLGSENI [F8L]: 0.306

Mixed results
O=C(NCc1ncc(C(F)(F)F)cc1Cl)c1ccc2c(c1)C1(CCS(=O)(=O)CC1)[C@@H](C1CC1)N2S(=O)(=O)c1ccc(F)cc1 — inhibition (OPRM1 (Homo sapiens, UniProt P35372); ligand displacement; 10 µM): 13.1%
CN1C(=O)COc2c(C(=O)NC3CN4CCC3CC4)cc(Cl)cc21 (centres unmarked) — viability (HaCaT; 100 µM, 36 h): 83.9%
O=C(NS(=O)(=O)c1ccc(NCC2CCOCC2)c([N+](=O)[O-])c1)c1ccc(N2CCN(Cc3ccc(C(F)(F)F)cc3-c3ccc(Cl)cc3)CC2)cc1Oc1cnc2[nH]ccc2c1 — remaining binding (pknB (Mycobacterium tuberculosis, UniProt P9WI81); cell-free assay, competition with immobilised ligand; 1 µM): 90%
C[C@]12CCC(=O)C=C1CC[C@@H]1[C@@H]2C(=O)C[C@]2(C)C(=O)CC[C@@H]12 — viability (HaCaT; 100 µM, 36 h): 99.4%
O=C1CCC(N2Cc3c(ccc4c3OCC43CCN(Cc4ccccc4)CC3)C2=O)C(=O)N1 (centres unmarked) — volume of distribution (Vz) (ICR mouse, male, plasma; intravenous, 1.0 mg/kg): 5.77 L/kg
CNC(=O)c1cc(C(=O)NC2CC2)cn(Cc2ccccc2)c1=O — inhibition (DRD1 (Homo sapiens, UniProt P21728); binding, radioligand binding; 10 µM): 6.94%
CCOc1ccc(N2C(=O)N=C(O)C3(Cc4c(ccc5ccccc45)N(C)C3)C2=O)cc1 (centres unmarked) — remaining compound (human, microsomes or S9; 2 µM, 0.5 h): 44.1%

A few entries again (mixed results):
C[C@]12CCC(=O)C=C1CC[C@@H]1[C@@H]2C(=O)C[C@]2(C)C(=O)CC[C@@H]12 — viability (HaCaT; 100 µM, 36 h): 99.4%
